Results pooled from the literature.
Each line is one published result; not all experiments were run side by side. “And” joins repeats or separate records; there may be more than shown. ± gives the spread as reported.
IDE: Insulin-degrading enzyme (IDE, Homo sapiens, UniProt P14735)

Structure (SMILES)	tested on	assay	system	setting	how to read	measurement	result
CNC(=O)c1ccc(-c2cnc3ncc(Cc4ccc5ncccc5c4)n3n2)cc1F	–	–	human moderate hepatic impairment NCI	oral, 200 mg single dose, geometric mean	–	AUC(0-t)	7260 ng·h/mL
Cn1cc(Nc2nccc(-c3ccc4c(c3)CN(C3COC3)CC[C@H]4NC(=O)c3cn(C(C)(C)C)nn3)n2)cn1	–	–	human, whole blood	50 mg twice daily, day 7	baseline: pre-dose baseline	plasmablast count change	128%
O=C(c1ccc(C(=O)N2CCC(N3CCCC3)CC2)c(Nc2ccccc2)c1)N1CCC(N2CCCC2)CC1	HBL-1	–	–	0.1 µM, 120 h	–	viability	117%
O=C(Nc1nc2cccc(-c3ccc(CN4CCS(=O)(=O)CC4)cc3)n2n1)C1CC1	–	–	rheumatoid arthritis patients	oral, 100 mg twice daily, 4 weeks, regardless of relatedness	–	patients with pain in extremity	0%
Cn1cncc1-c1c(F)cncc1NC(=O)c1c(N)nn2cc(F)cnc12	–	–	patients, advanced solid tumours	oral, 180 mg once daily	baseline: patients	grade ≥1 adverse events	100%
C[C@@H]1OC(=O)[C@H](Cc2ccccc2)[C@H]1O	–	aerobic dark soil incubation	soil	geometric mean of 4 soils, persistence endpoint	–	DT50	0.57 days
COc1cccc(-c2ccc([C@@H]3[C@@H](CO)N4CCCCN(CC5CCOCC5)C[C@@H]34)cc2)c1	IDE	enzyme activity, inhibitor, fluorogenic kinetic	–	with: Mca-RPPGFSAFK(Dnp)-OH substrate	–	EC50	30 µM
CCO[C@H]1CCN(Cc2c(OC)cc(C)c3[nH]ccc23)[C@H](c2ccc(C(=O)O)cc2)C1	–	–	PNH patients, active haemolysis	oral, 50 mg, treatment	–	incidence of pyrexia	0%
Cc1ccc(Sc2ccccc2N2CCNCC2)c(C)c1	–	item: thermal burn	healthy adult men	oral, 10 mg daily, 12 days	–	participants with TEAE	0%
Cc1ccccc1-c1ccc([C@H]2[C@@H](CO)N3CCCCN(CC4CC4)C[C@@H]23)cc1	IDE	enzyme activity, inhibitor, fluorogenic kinetic	–	with: Mca-RPPGFSAFK(Dnp)-OH substrate	–	EC50	45 µM
CCc1cc(C(=O)NC)c2nccc(N3CCc4c(cc(Cn5ccnc5)cc4-c4cn(C)nc4C(F)(F)F)C3=O)c2c1	–	–	Sprague Dawley rat	oral, 50 mg/kg once daily, 7 days	–	heart weight	1 ± 0.056 g
C=CCn1c(=O)c2cnc(Nc3ccc(N4CCN(C)CC4)cc3)nc2n1-c1ccc2c(n1)[C@@](O)(CC)CC2	–	–	female NOD/SCID mouse OVCAR-3 xenograft, plasma	oral, 90 mg/kg once daily, :3	–	Cmax	5670 ng/mL
COc1ccc(CNc2nc(-c3ccc(C(=O)O)cc3)nc3sc4ccccc4c23)cc1Cl	–	–	NSG mice	dose not given, day 2	–	body weight	21.3 g and 20.5 g and 19 g and 18.2 g
CCOc1c([C@H](C)n2nc(C)c3c(N)ncnc32)cc(Cl)c(F)c1[C@@H]1CNC(=O)C1	–	item: ΔQTcF ≤ 30 ms	previously treated B-cell malignancy	oral, dose not given, baseline QTcF ≤450 ms, all doses	–	share of ECG observations	96.9%
CC(=O)O[C@H]1C(=O)[C@@]2(C)[C@H]([C@H](OC(=O)c3ccccc3)[C@]3(O)C[C@H](OC(=O)[C@H](O)[C@@H](NC(=O)c4ccccc4)c4ccccc4)C(C)=C1C3(C)C)[C@]1(OC(C)=O)CO[C@@H]1C[C@@H]2O	–	item: Fatigue	patients with advanced solid tumours	intravenous, dose not given, grade 1 and 2, possibly related to drug	–	adverse event incidence	46%
NC1(C(=O)N[C@@H](CCO)c2ccc(Cl)cc2)CCN(c2nc[nH]c3nccc2-3)CC1	–	–	metastatic CRPC patients	400 mg b.i.d., any grade, treatment-related, with: enzalutamide 160 mg daily	–	incidence of lower abdominal pain	0%
COc1cc2c(cc1-c1c(C)noc1C)ncc1[nH]c(=O)n([C@H](C)c3ccccn3)c12	HBL-1	–	–	1 µM, 120 h	–	viability	20.3%
C[C@H]1CN(C(=O)CC#N)[C@]12CCN(c1ncnc3[nH]ccc13)C2	–	–	healthy human	oral, 3 mg single	–	subjects with Vomiting	0%
CCC(C)n1ncn(-c2ccc(N3CCN(c4ccc(OCC5COC(Cn6cncn6)(c6ccc(Cl)cc6Cl)O5)cc4)CC3)cc2)c1=O (stereo not shown)	–	–	healthy human volunteers	oral, 200 mg, event Fatigue, continued dosing	–	adverse events	0%
O=C1CCc2ccc(OCCCCN3CCN(c4cccc(Cl)c4Cl)CC3)cc2N1	–	item: Rigidity	genotyped patients, CYP2D6 normal metabolizers	dose not given, long-acting oral or depot	–	adverse event incidence	4.1%
O=C(O)c1cccc(C(=O)O)c1	–	–	betaine/ethylene glycol DES-water	DES mass fraction 0.50	–	apparent dissolution enthalpy	2.77 kcal/mol
O=C1NCCc2nc(OCc3cccc(F)c3)ccc21	–	item: Irritability	Sprague-Dawley rat male	oral, 100 mg/kg, 30 min	direction not given	Irwin test score	0

Excerpt of the above:
Structure (SMILES)	tested on	assay	system	setting	how to read	measurement	result
CCc1cc(C(=O)NC)c2nccc(N3CCc4c(cc(Cn5ccnc5)cc4-c4cn(C)nc4C(F)(F)F)C3=O)c2c1	–	–	Sprague Dawley rat	oral, 50 mg/kg once daily, 7 days	–	heart weight	1 ± 0.056 g
C=CCn1c(=O)c2cnc(Nc3ccc(N4CCN(C)CC4)cc3)nc2n1-c1ccc2c(n1)[C@@](O)(CC)CC2	–	–	female NOD/SCID mouse OVCAR-3 xenograft, plasma	oral, 90 mg/kg once daily, :3	–	Cmax	5670 ng/mL
COc1ccc(CNc2nc(-c3ccc(C(=O)O)cc3)nc3sc4ccccc4c23)cc1Cl	–	–	NSG mice	dose not given, day 2	–	body weight	21.3 g and 20.5 g and 19 g and 18.2 g
